Published values from different studies.
Parts stem from different laboratories: compare values within a part only. “And” joins repeats or separate records; there may be more than shown.

Series 1
Cell line: mouse MPNST tumor cells
Method: high-content nuclear imaging
Refers to: cell number
Tested at: 10 µM
Time: 12 h
Setting: mean of 2 replicates
Relative to: plate mean
Reading: higher = more cells
Structure (SMILES)	nuclei count [z-score]
O=C1Nc2ccc(Cl)c3c2C1(CCCCN1CC=C(c2ccc(Cl)cc2)CC1)CCC3 (stereo not drawn)	-4.8
CN/C(=N\S(=O)(=O)c1ccc(Cl)cc1)N1C[C@H](c2ccccc2)C(c2ccc(Cl)cc2)=N1	0.923
Fc1cc(F)c2c(c1)[C@H]1C=CC[C@H]1C(c1cccnc1)N2 (stereo partly drawn)	-1.08
CNC(C)(C)Cc1ccccc1	1.11
CO[C@]12C[C@@H](COC(=O)c3cncc(Br)c3)CN(C)[C@@H]1Cc1cn(C)c3cccc2c13	1.31
O=C1CN=C(c2ccc[nH]2)c2cc(Cl)ccc2N1	2.12
COC(=O)CN1CN(c2ccccc2)C2(CCN(Cc3ccc4ccccc4c3)CC2)C1=O	2.88
NP(N)(=O)NC(=O)c1ccc(F)cc1	1.5

Series 2
SMILES: CNC(=O)c1ccc(-c2cnn3ccc(C(=O)N(C)c4ccc(Cl)c(C(=O)OC)c4)cc23)cc1
Organism: Cryptosporidium parvum
Method: time-kill
Cell line: HCT-8
Strain: nanoluciferase-expressing
Reading: higher = more parasites
conditions	parasite luminescence
2.222 µM, 72 h	19800 RLU and 20800 RLU
0.7407 µM, 4 h	86900 RLU and 87600 RLU
0.02743 µM, 4 h	79300 RLU and 99100 RLU
0.00305 µM, 4 h	72000 RLU and 96100 RLU
2.222 µM, 24 h	94400 RLU and 95800 RLU
0.7407 µM, 24 h	111000 RLU and 106000 RLU
0.2469 µM, 8 h	115000 RLU and 95800 RLU
0.00305 µM, 8 h	80200 RLU and 84100 RLU
0.7407 µM, 8 h	105000 RLU and 106000 RLU
6.667 µM, 24 h	108000 RLU and 103000 RLU
0.00305 µM, 24 h	204000 RLU and 260000 RLU

Series 3
SMILES: CCOc1ccc(Nc2c3c(nc4ccccc24)CCC3)cc1
Organism: Leishmania donovani
test	test system	conditions	inhibition
parasite growth	DD8 amphotericin B-resistant, promastigotes	0.16 µM	2% and 8% and 5% and 4%
parasite growth	DD8 amphotericin B-resistant, promastigotes	0.0033 µM	2% and 1%
parasite growth	DD8 amphotericin B-resistant, intracellular amastigotes	0.02 µM	1% and 5%
parasite growth	DD8 amphotericin B-resistant, intracellular amastigotes	8 µM	100%
parasite growth	DD8 amphotericin B-resistant, intracellular amastigotes	2 µM	78% and 82% and 83% and 74% and 88%
	THP-1 intracellular amastigotes, DD8 resistant line	2 µM, resistance confirmation	20%
parasite killing	DD8, intracellular amastigotes	8 µM, 24 h	60% and 34% and 36%

Mixed results
SMILES	test system	conditions	endpoint	result
O=C1CCC(N2Cc3c(ccc4c3OCC43CCN(Cc4ccccc4)CC3)C2=O)C(=O)N1 (stereo not drawn)	rat Sprague Dawley male, plasma	intravenous, 1.0 mg/kg	Vz	3.65 L/kg and 3.6 L/kg
